Measurements collected from several papers.
“And” joins repeats or separate records; there may be more than shown. Numbers after ± are the reported error.

CNC(=O)c1ccc(-c2cnc3ncc(Cc4ccc5ncccc5c4)n3n2)cc1F  upper abdominal pain incidence (all grades) (CTCAE v4.0, any causality; human cancer patients; oral, 600 mg twice daily, expansion cohort at RP2D): 5%
O=C(Nc1nc2cccc(-c3ccc(CN4CCS(=O)(=O)CC4)cc3)n2n1)C1CC1  treatment-emergent adverse events (refers to: thrombocytopenia; rheumatoid arthritis patients; oral, 150 mg once daily, 4 weeks, any relatedness): 0%
CNC(=O)c1ccc(-c2cnc3ncc(Cc4ccc5ncccc5c4)n3n2)cc1F  Vomiting dose reduction/interruption (Japanese patients; oral, 400 mg, grade 3/4): 0%
CO[C@H]1C[C@@H]2CC[C@@H](C)[C@@](O)(O2)C(=O)C(=O)N2CCCC[C@H]2C(=O)O[C@H]([C@H](C)C[C@@H]2CC[C@@H](O)[C@H](OC)C2)CC(=O)[C@H](C)/C=C(\C)[C@@H](O)[C@@H](OC)C(=O)[C@H](C)C[C@H](C)/C=C/C=C/C=C/1C  rectal temperature (healthy adult horses; intravenous, 0.06 mg/kg, 8 h): 37.3 ± 0.2 °C
CCc1cc2ncc(CN3CCN(c4ccc(C(=O)NC)nc4)CC3)cc2[nH]c1=O  white blood cell count change (male rat; oral, 5 mg/kg/day, 4 weeks, GLP toxicology; baseline: control): 0.75
O=C1CC[C@H](N2Cc3cc(N4CCN(CC5CCN(c6ccc([C@@H]7c8ccc(O)cc8CC[C@@H]7c7ccccc7)cc6)CC5)CC4)ccc3C2=O)C(=O)N1  Tlast (human, plasma; oral, 200 mg, median, range, with: dabigatran etexilate 75 mg): 49.5 h
Cc1c2oc3c(C)ccc(C(=O)N[C@@H]4C(=O)N[C@H](C(C)C)C(=O)N5CCC[C@H]5C(=O)N(C)CC(=O)N(C)[C@@H](C(C)C)C(=O)O[C@@H]4C)c3nc-2c(C(=O)N[C@@H]2C(=O)N[C@H](C(C)C)C(=O)N3CCC[C@H]3C(=O)N(C)CC(=O)N(C)[C@@H](C(C)C)C(=O)O[C@@H]2C)c(N)c1=O  maximum plasma concentration (LC-MS; children with cancer, plasma; dose not given, 4 h): 16.1 µg/L
Cc1cc(-c2nccc3c2ccn3CC(=O)Nc2ccc(-c3cnccn3)cn2)ccn1  subjects with Cough adverse event (human; 5 mg once daily, multiple ascending dose): 0%
CC(=O)Oc1ccccc1C(=O)O  mean blood pressure (male Hartley guinea pigs, anaesthetized; intravenous, 3 mg/kg over 10 min, after infusion): 36 ± 0.1 mmHg
CCc1cc(C(=O)NC)c2nccc(N3CCc4c(cc(Cn5ccnc5)cc4-c4cn(C)nc4C(F)(F)F)C3=O)c2c1  change in clinical chemistry or haematology parameter (refers to: TP; Sprague Dawley rat; oral, 50 mg/kg once daily, 7 days; baseline: vehicle): -4.7%
CC(C)=CCC1=C(O)C(=O)c2ccccc2C1=O  cathodic peak potential (cyclic voltammetry; dichloromethane; 0.1 mM, with: 0.1 M Bu4NPF6; baseline: Ag/AgCl in saturated KOH): -1.31 V
O=C(c1cccnc1-c1ccncc1)N1CCC(O)(Cc2ccccc2)CC1  AUClast/dose (healthy Japanese adults, plasma; oral, 200 mg twice daily, day 14): 4.3 ng·h/mL/mg
Cc1cc(Nc2cc3ncccc3c(N[C@@H]3C[C@H]4CC[C@@H](C3)N4CCC#N)n2)n[nH]1  papular rash incidence (healthy human subjects; oral, 300 mg, 2 weeks, single ascending dose): 0%
COc1ccc2c(c1)sc(-c1ccc(N(C)C)cc1)[n+]2C  brightness (PBS; free dye): 104 M⁻¹ cm⁻¹
O=C(Nc1cnccc1Cl)N1CCN(Cc2ccc3c(c2)OC(F)(F)O3)CC1  AUC(0-tau) (healthy young women, plasma; oral, 100 mg once daily, day 10, dosing interval 24 h): 6970 ng·h/mL
CC(C)Nc1ccnc(Nc2ccccc2-c2ccccc2)n1  Papp (A to B) (MDCKII-WT cells; 10 µM, pH 7.4): 17.2 ± 2.16 ×10⁻⁶ cm/s
C[C@H]1[C@H]2N(C(=O)CN(C)N2C(=O)NCc2ccccc2)[C@@H](Cc2ccc(OP(=O)(O)O)cc2)C(=O)N1Cc1cccc2cccnc12  plasma concentration (human, plasma; intravenous infusion over 4 h, 280 mg/m2, 4 h after dosing): 1470 ng/mL
CC(C)[C@@H](CS(=O)(=O)C(C)C)N1C(=O)[C@@](C)(CC(=O)O)C[C@H](c2cccc(Cl)c2)[C@H]1c1ccc(Cl)cc1  AUC(0-inf) (FVB mice Abcb1a/b Abcg2 knockout, brain; intravenous, 20 mg/kg): 7990 ± 248 ng·h/mL
CNc1ccc(-c2nc3ccc(O)cc3s2)cc1 [carbon-11 labelled]  SUV (ex vivo biodistribution; B6SJL mouse, normal, lungs; intravenous, 30 min): 0.607 ± 0.163
Cn1cc(Nc2nccc(-c3ccc4c(c3)CN(C3COC3)CC[C@H]4NC(=O)c3cn(C(C)(C)C)nn3)n2)cn1  CD8+ T cell count change (human, whole blood; 50 mg twice daily, day 7; baseline: pre-dose baseline): 21.9%
CNC(=O)c1ccc(-c2cnc3ncc(Cc4ccc5ncccc5c4)n3n2)cc1F  subjects with adverse events (healthy human subjects; oral, 400 mg, grade 3, all causality, with: rifampicin 600 mg/day): 3.8%
COc1ccc2c(=O)n(C)c(-c3ccccc3)nc2c1  tissue concentration (Sprague-Dawley rat, lung; oral, 30 mg/kg, 4 h): not detected
CN1CCN(c2cccc3c2CCN(C(=O)/C=C/c2c(-n4cnnn4)ccc(Cl)c2F)[C@@H]3C(=O)Nc2ccc(C(=O)O)cc2)C(=O)C1  upper respiratory infection subjects (healthy human subjects; intravenous infusion, 3 mg/h, 5 days, study): 0%
C[C@@H]1COCCN1c1cc(C2([S@](C)(=N)=O)CC2)nc(-c2cc[nH]c3nccc2-3)n1  Vomiting incidence (Japanese advanced solid tumour patients; oral, 160 mg twice daily, CTCAE grade ≥3): 0%
Cc1cc(NC(=O)c2cccc(NC(=O)/C=C/CN(C)C)c2)ccc1Nc1nccc(-c2cccnc2)n1  remaining compound (primary hepatocytes, rat Wistar male; 1 µM, 10 min): 92.7%
CN1C(=O)[C@@H](NC(=O)c2nnc(Cc3ccccc3)[nH]2)COc2cccnc21  nasopharyngitis incidence (phase I multiple ascending dose; human, male and female; oral, 600 mg, 14 days): 0%
C=CCN1CC(=O)N2[C@@H](Cc3ccc(O)cc3F)C(=O)N(Cc3cccc(N4CC(N5CCN(CC)CC5)C4)n3)C[C@@H]2N1C(=O)NCc1ccccc1  treatment-related diarrhoea (advanced solid tumour patients; oral, 100 mg twice daily, grade ≥3, dose-escalation): 0%
C=CC(=O)N(C)CCOc1c(N)ncnc1-c1cc(F)cc(NC(=O)c2ccc(C3CC3)cc2F)c1C  AUC(0-last) per dose (human; oral, 20 mg, day 7, arithmetic mean, with: ritonavir): 20.8 ng·h/mL/mg
Cc1c(-c2ccc(N3CCc4cccc(C(=O)Nc5nc6ccccc6s5)c4C3)nc2C(=O)O)cnn1CC12CC3(C)CC(C)(C1)CC(OCCNCC[C@H](O)CO)(C3)C2  plasma concentration (anaesthetized male beagle dog; iv infusion, 0.3 mg/kg/min, 90 min): 0.4 ng/mL and 2.49 ng/mL
Cc1ccc(O)c(-n2nc3ccccc3n2)c1  mean daily dermal uptake (exposure assessment; human, age 16-21 years; cream): 240 ng/kg body weight/day
COc1cc2c3c(n(CCCN4CCOCC4)c(=O)c2cc1OC)-c1cc2c(cc1C3=O)OCO2  CL (beagle dog, female, plasma; intravenous infusion, 430 mg/m^2, 1 h infusion): 48 L/h/m² and 33 L/h/m²
CCN1/C(=C/C(C)=O)Sc2ccc(F)cc21  PR interval (cynomolgus monkey; oral, 10 mg/kg, 24 h post-dose): 90 ± 5 ms
O=C(O)CCC(=O)O.[2H]C([2H])([2H])Oc1cc(C)c2[nH]ccc2c1CN1CC[C@@H](C2CC2)C[C@H]1c1ccc(C(=O)O)cc1  TEAE elevated monocyte (healthy Chinese subjects; 125 mg twice daily, multiple ascending dose): 12.5%
COc1ccc2c(c1)CCc1c(C(=O)NCCc3nc4cc(C)ccc4[nH]3)n[nH]c1-2  maximum haemolysis (sheep erythrocytes; 1 h, pH 7.5): 29.9%
C=CC(=O)NC1CCN(c2ncc3ncnc(Nc4ccc(Oc5ccc6c(c5)ncn6C)c(C)c4)c3n2)CC1  participants with erythema (human, male; oral, 240 mg, treatment-emergent adverse event): 6.3%
COc1ccc([C@@H](O)c2cc(-c3ncnc4cc(N5CCOCC5)ccc34)c(F)cc2Cl)nn1  metabolism nutrition disorder TEAE (locally advanced rectal cancer patients; 250 mg, with: capecitabine and radiotherapy): 67%
Cc1ccc([C@@H]2O[C@H](CO)[C@@H](O)[C@H](O)[C@H]2O)cc1Cc1ccc(-c2ccc(F)cc2)s1  urinary potassium excretion change (Japanese type 2 diabetes patients; 200 mg, day 5, 24 h urine collection; baseline: baseline): 0.399 mEq
C[C@@H]1CN(c2c(F)c(N)c3c(=O)c(C(=O)O)cn(C4CC4)c3c2F)C[C@H](C)N1  mean blood pressure (male Hartley guinea pigs, anaesthetized; intravenous, 10 mg/kg over 10 min, after infusion): 31 ± 0.1 mmHg
Cn1c(C(F)(F)F)cc(=O)n(-c2cc(Oc3cccnc3OCC(=O)O)c(Cl)cc2F)c1=O  Tmax (beagle dog, male, plasma; oral capsule, 100 mg/kg/day epyrifenacil, day 1, 90-day study): 5.5 h
FC(F)(F)c1ccc(CNc2ccc(Cc3c[nH]c4ncc(Cl)cc34)cn2)cn1  adverse events, all grades (refers to: blood alkaline phosphatase increased; patients with advanced solid tumours; oral, dose not given, phase Ib, related to compound): 17%
CC(C)Nc1nc2cc(Cl)c(Cl)cc2n1[C@H]1O[C@@H](CO)[C@H](O)[C@@H]1O  Q/F (population PK model; human; oral, 70 kg body weight): 1.24 L/h
NC1(C(=O)N[C@@H](CCO)c2ccc(Cl)cc2)CCN(c2nc[nH]c3nccc2-3)CC1  incidence of Stomatitis (metastatic CRPC patients; 320 mg b.i.d., grade 3 to 4, treatment-related, with: enzalutamide 160 mg daily): 0%
N[C@@H](Cc1cc(I)c(Oc2cc(I)c(O)c(I)c2)c(I)c1)C(=O)O  pKa (basic): 8.9
Cc1cc(-c2ccc3cc[nH]c(=O)c3c2)ccc1O[C@H]1O[C@H](CO)[C@@H](O)[C@H](O)[C@@H]1O  C0 (male Sprague-Dawley rat, plasma; intravenous, 3 mg/kg, group mean): 504 ng/mL
COc1cccc(OC)c1-c1cc(C(=O)NC2(C(=O)O)C3CC4CC(C3)CC2C4)nn1-c1ccc(C(=O)N(C)CCCN(C)CCCN(C)C(=O)CN2CCN(CC(=O)[O-])CCN(CC(=O)[O-])CCN(CC(=O)[O-])CC2)cc1C(C)C.[177Lu+3] (stereo not shown)  tissue uptake (mouse, HT-29 xenograft, brain; 72 h post injection): 0.056 %ID/g
N#Cc1ccc2c(c1)[C@H]1CCCN(C(=O)c3ccc4[nH]cnc4c3)[C@H]1C2  SHBG level (human males; 360 mg, end of trial): 30.4 nmol/L
COCc1cc(C(=O)Nc2cc([C@H]3CC[C@@H](OC(=O)NC(C)C)C3)[nH]n2)n(C)n1  unbound Cmax (OVCAR-3 xenograft, NOD/SCID gamma mice, plasma; oral, 125 twice daily, PK/PD study): 2800 nM
COc1nc(-c2cc(C)c(N[C@@H](C)c3cc(F)cc(F)c3)nn2)ccc1-n1cnc(C)c1  concentration (rat Sprague-Dawley male, brain; oral, 5 mg/kg daily for 9 days, 4 h after dose): 550 ng/g
COc1cc2[nH]c(C)c(-c3cc4ccccc4o3)c(=O)c2cc1Cl  Papp (PAMPA; pH 7.4): 73 ×10⁻⁶ cm/s
CCC(=O)N(CCC(c1ccc2c(c1)OCO2)c1ccccc1OC)Cc1ccccc1 (stereo not shown)  CK (female athymic nude mouse, blood; i.p., 60 mg/kg twice daily, 14 days, group mean): 126 U/L
COCCc1ccc(OCC(O)CNC(C)C)cc1 (stereo not shown)  pKa (n-hexane/tris buffer partitioning; pH 9, hydrochloride salt): 9.82 ± 0.01
CNCc1ccc(-c2[nH]c3cc(F)cc4c3c2CCNC4=O)cc1  constipation incidence (patients; oral, 480 mg twice daily, all grades): 22.2%
NCCONC(=O)[C@@H]1CC[C@@H]2CN1C(=O)N2OS(=O)(=O)O  upper respiratory tract infection incidence (phase I clinical trial; healthy Chinese male humans; intravenous, 1 g): 25%
CN[C@@H]1COc2c(S(=O)(=O)NC(=O)Nc3c4c(cc5c3CCC5)CCC4)cnn2C1  ALT (human, serum; oral, 900 mg twice daily, day 9, with: midazolam): 89 U/L
CCN1CCN(Cc2ccc(NC(=O)c3ccc(C)c(NC(=O)c4cncc(-c5cccs5)c4)c3)cc2C(F)(F)F)CC1  Vz/F (C57BL/6 mouse, plasma; intraperitoneal, 20 mg/kg, single dose): 32.9 L/kg
CN1C(C(=O)Nc2ccc(F)cn2)=C(O)c2ccccc2S1(=O)=O  pKa (acidic): 4.5
CC/C(=C(\c1ccccc1)c1ccc(OCCN(C)C)cc1)c1ccccc1  mean blood pressure (male Hartley guinea pigs, anaesthetized; intravenous, 3 mg/kg over 10 min, after infusion): 35 ± 0.2 mmHg
C[C@H]1O[C@@H](O[C@H]2CC[C@@]3(C)[C@@H](CC[C@]4(C)[C@@H]3C=C[C@]35OC[C@@]6(CCC(C)(C)C[C@H]63)[C@@H](O)C[C@]54C)[C@]2(C)CO)[C@H](O)[C@@H](O[C@@H]2O[C@H](CO)[C@@H](O)[C@H](O)[C@H]2O)[C@H]1O  plasma concentration (UHPLC-MS/MS; mouse, plasma; oral, 50 mg/kg, 8 h, pooled samples): 0 ng/mL
